Experimental data of several laboratories.
Every numbered part comes from another study and shows a few of its results, in no order. Values joined by “and” are separate records of one study, mostly repeats; a detail may differ.
Sequence of UniProt O15146 (whole entry, looked up): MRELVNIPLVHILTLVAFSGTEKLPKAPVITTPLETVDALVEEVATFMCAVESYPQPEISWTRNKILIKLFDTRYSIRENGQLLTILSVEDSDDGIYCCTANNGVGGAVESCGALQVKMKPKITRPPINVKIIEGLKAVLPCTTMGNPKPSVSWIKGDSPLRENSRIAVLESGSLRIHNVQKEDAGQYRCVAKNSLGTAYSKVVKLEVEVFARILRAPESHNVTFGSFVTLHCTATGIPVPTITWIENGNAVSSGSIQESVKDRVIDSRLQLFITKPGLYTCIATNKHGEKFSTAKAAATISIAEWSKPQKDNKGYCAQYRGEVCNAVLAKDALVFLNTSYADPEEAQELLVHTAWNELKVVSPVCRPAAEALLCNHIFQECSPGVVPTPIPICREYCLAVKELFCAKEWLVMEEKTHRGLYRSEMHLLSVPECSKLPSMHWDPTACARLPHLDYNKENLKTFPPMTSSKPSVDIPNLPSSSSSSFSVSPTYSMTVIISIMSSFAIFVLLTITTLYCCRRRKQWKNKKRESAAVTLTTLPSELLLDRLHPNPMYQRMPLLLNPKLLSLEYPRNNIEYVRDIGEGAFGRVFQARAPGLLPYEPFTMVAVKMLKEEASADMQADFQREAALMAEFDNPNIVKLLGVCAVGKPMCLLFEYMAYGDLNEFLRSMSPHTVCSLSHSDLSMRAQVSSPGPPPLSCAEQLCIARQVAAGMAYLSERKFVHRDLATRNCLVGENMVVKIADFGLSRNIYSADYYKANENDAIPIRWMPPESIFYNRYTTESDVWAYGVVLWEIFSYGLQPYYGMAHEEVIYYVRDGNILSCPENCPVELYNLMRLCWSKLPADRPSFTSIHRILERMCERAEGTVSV
Sequence of UniProt Q8WTQ7 (whole entry, looked up): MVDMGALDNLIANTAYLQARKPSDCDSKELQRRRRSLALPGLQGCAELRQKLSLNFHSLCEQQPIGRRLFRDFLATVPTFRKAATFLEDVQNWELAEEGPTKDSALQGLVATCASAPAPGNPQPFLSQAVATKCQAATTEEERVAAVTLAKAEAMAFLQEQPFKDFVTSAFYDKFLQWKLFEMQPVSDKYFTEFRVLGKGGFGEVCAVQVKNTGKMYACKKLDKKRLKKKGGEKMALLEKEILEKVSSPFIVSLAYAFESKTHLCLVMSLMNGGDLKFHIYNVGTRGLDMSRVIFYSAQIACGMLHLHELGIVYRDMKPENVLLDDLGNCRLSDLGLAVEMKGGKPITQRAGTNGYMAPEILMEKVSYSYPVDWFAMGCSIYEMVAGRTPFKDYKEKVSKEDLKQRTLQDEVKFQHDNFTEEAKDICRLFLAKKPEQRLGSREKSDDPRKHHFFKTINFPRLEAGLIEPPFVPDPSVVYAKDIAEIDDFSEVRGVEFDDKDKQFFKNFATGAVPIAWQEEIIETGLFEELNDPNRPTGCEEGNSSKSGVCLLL
Sequence of UniProt Q14164 (whole entry, looked up): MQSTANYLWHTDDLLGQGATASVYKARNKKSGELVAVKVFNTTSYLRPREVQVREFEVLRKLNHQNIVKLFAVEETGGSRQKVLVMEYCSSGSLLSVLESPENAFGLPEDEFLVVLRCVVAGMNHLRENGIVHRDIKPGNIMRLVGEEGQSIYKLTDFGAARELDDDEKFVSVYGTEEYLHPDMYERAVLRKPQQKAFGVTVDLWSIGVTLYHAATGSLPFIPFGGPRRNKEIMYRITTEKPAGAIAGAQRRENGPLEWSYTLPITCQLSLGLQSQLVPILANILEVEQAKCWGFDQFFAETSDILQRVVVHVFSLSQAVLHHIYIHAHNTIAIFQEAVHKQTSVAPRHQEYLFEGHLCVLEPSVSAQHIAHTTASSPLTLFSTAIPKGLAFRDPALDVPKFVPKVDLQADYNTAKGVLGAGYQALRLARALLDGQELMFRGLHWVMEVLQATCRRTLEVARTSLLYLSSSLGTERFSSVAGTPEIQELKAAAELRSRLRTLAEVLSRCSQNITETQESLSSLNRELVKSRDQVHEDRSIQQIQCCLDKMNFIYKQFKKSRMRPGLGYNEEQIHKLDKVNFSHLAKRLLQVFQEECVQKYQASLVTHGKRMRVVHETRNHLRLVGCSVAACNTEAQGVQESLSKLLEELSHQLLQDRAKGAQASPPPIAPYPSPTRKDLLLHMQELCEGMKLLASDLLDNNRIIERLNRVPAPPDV
Sequence of UniProt Q15349 (whole entry, looked up): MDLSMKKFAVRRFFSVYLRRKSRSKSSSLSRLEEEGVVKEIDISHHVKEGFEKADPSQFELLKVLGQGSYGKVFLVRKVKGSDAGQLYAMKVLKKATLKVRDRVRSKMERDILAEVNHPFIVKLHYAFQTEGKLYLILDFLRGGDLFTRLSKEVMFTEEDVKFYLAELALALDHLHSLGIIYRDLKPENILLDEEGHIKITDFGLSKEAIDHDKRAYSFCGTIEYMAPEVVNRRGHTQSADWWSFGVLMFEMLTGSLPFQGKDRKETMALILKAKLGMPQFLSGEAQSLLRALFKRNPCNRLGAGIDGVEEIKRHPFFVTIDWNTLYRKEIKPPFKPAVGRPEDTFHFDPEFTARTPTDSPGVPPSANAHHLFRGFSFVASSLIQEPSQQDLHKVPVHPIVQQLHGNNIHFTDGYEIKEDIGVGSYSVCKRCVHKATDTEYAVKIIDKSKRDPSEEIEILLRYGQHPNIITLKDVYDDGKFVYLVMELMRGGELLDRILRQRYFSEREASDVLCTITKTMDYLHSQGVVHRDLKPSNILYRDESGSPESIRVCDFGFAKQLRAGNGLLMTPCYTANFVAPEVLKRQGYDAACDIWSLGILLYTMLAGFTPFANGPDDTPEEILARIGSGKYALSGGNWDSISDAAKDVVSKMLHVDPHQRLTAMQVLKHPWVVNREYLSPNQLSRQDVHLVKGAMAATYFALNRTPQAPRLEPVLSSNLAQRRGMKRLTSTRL
Sequence of UniProt Q6P3R8 (whole entry, looked up): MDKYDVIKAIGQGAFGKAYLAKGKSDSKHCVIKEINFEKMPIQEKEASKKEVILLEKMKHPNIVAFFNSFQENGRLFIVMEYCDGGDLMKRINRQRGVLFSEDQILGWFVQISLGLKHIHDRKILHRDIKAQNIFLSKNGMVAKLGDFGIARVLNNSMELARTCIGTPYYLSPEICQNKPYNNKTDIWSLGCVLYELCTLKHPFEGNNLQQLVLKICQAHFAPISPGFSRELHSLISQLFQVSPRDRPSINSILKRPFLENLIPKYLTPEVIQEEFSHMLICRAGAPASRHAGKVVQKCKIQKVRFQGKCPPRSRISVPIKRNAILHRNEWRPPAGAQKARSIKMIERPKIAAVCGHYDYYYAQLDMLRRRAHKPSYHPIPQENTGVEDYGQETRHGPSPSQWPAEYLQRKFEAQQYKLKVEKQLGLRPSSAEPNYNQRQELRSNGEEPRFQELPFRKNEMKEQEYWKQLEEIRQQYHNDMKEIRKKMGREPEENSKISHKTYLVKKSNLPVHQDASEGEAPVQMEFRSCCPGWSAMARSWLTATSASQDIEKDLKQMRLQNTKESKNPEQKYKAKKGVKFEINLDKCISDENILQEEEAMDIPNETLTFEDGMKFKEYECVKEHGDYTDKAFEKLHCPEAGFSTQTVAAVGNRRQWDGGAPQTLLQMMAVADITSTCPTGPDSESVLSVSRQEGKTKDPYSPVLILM
Sequence of UniProt Q9H0K1 (whole entry, looked up): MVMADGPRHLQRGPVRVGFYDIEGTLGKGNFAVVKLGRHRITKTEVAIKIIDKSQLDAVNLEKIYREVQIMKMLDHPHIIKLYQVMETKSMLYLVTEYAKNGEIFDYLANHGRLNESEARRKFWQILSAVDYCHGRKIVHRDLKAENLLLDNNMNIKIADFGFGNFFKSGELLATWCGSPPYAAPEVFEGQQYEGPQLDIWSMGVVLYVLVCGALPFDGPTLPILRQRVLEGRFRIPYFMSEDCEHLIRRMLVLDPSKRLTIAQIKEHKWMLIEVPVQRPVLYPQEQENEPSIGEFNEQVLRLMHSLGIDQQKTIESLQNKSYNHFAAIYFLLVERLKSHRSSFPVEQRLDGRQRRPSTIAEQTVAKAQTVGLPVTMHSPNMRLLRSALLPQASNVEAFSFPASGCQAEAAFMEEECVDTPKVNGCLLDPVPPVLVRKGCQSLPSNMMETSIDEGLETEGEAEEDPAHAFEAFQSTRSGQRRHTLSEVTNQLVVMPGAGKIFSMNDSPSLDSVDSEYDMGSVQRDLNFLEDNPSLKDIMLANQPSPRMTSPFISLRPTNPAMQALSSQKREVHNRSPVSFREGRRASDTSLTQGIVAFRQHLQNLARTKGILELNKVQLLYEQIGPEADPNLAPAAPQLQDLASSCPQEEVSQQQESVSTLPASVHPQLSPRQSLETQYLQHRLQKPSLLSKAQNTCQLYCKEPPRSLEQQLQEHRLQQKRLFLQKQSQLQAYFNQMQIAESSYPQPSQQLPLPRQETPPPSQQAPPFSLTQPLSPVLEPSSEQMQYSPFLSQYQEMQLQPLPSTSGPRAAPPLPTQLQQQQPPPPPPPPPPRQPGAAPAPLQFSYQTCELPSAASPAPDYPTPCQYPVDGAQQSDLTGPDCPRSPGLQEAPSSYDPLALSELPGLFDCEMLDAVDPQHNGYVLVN

Series 1
Target: Calcium/calmodulin-dependent protein kinase type II subunit gamma (CAMK2G, Homo sapiens, UniProt Q13555)
Sequence of UniProt Q13555 (whole entry, looked up): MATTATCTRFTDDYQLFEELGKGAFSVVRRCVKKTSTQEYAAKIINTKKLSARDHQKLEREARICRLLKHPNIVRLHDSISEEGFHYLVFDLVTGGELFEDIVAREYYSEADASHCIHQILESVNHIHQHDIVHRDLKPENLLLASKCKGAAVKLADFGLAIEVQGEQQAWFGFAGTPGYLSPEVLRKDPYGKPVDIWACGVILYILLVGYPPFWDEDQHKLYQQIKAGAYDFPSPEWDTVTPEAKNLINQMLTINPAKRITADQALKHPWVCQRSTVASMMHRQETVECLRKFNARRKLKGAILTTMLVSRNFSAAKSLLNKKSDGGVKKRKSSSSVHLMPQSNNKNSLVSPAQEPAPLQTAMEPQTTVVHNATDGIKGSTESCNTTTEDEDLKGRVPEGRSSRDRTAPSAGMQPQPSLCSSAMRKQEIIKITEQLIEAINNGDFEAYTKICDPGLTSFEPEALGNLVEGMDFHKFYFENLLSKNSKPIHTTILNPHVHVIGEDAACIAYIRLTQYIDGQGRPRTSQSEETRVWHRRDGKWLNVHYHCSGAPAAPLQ
Observed: enzyme activity
Mode: inhibitor
Tested at: 0.5 µM
Reference: control
`CSc1nc(-c2ccnc(N[C@@H](C)c3ccccc3)c2)c(-c2ccc(F)cc2)[nH]1` (racemic) gave a remaining activity of 102%.
The remaining activity of `CC(C)(C)n1nc(Cc2cccc3ccccc23)c2c(N)ncnc21` is reported as 95.4%.
For `O=S(=O)(NCCNC/C=C/c1ccc(Br)cc1)c1cccc2cnccc12`, the remaining activity was 98.7%.
With `O=C1Cc2c([nH]c3ccc([N+](=O)[O-])cc23)-c2ccccc2N1` the remaining activity was 94.5%.
`Nc1ncnc2c1cnn2-c1ccccc1` gave a remaining activity of 105%.
`COc1cc(Nc2c(C#N)cnc3cc(OCCCN4CCN(C)CC4)c(OC)cc23)c(Cl)cc1Cl` has a remaining activity of 131%.
With `Fc1ccc(-c2nc3n(c2-c2ccncc2)CCS3)cc1` the remaining activity was 90.5%.
`Oc1ccc(Nc2nc(-c3ccc(Cl)cc3)cs2)cc1` has a remaining activity of 90.6%.
`CCCC(=O)Oc1ccc2[nH]c(C(=O)c3cc4ccccc4[nH]3)cc2c1` has a remaining activity of 99.4%.
With `O=C1NC(=O)C(c2c[nH]c3ccccc23)=C1c1c[nH]c2ccccc12` the remaining activity was 104%.
The remaining activity of `Cc1cncc2cccc(S(=O)(=O)N3CCCN(C(=O)CN)C[C@@H]3C)c12` is reported as 94%.
`Cc1cc(Nc2nc(-c3ccccc3)nc3ccccc23)n[nH]1` has a remaining activity of 95.9%.
`CC[n+]1c(/C=C/N(C)c2ccccc2)n(-c2ccccc2)c2ccc(-c3nc4ccccc4s3)cc21` gave a remaining activity of 103%.
`Nc1nccc(-c2c(-c3ccc(F)cc3)ncn2C2CCNCC2)n1` has a remaining activity of 93%.
With `CC#CC(=O)Nc1cc2c(Nc3ccc(F)c(Cl)c3)ncnc2cn1` the remaining activity was 97.7%.
With `Cc1ccc(NC2=CC(=O)c3sc(C)nc3C2=O)cc1` the remaining activity was 90.4%.
With `CC(=O)c1ccc(N2CCOCC2)cc1O` the remaining activity was 90.2%.
`COc1ccc(S(=O)(=O)N(CCO)c2ccccc2CN(C)CC=Cc2ccc(Cl)cc2)cc1` has a remaining activity of 98.6%.
With `N#CC(=C(N)Sc1ccc(N)cc1)c1ccccc1C(F)(F)F` the remaining activity was 106%.
For `Nc1nc(Nc2ccc(S(N)(=O)=O)cc2)nn1C(=O)c1c(F)cccc1F`, the remaining activity was 104%.
`NC(=O)c1ccc(N(C(N)=O)c2c(F)cccc2F)nc1-c1ccc(F)cc1F` gave a remaining activity of 105%.

Series 2
Cell line: A-375
Tested at: 100 µM
Time: 18 h
The viability of `COc1ccc2c(c1)c(CC(=O)OCC(=O)O)c(C)n2C(=O)c1ccc(Cl)cc1` is reported as 85.5%.
For `N=c1ccn2c(n1)O[C@H]1[C@H](O)[C@@H](CO)O[C@H]12`, the viability was 73.2%.
The viability of `Nc1ccn([C@@H]2CS[C@H](CO)O2)c(=O)n1` is reported as 97.9%.
With `CC(C)(Oc1ccc(Cl)cc1)C(=O)OCCOC(=O)c1cccnc1` the viability was 77.5%.
`N#Cc1ccc(C(c2ccc(C#N)cc2)n2cncn2)cc1` has a viability of 111%.
The viability of `NC(=O)c1cccnc1` is reported as 92.7%.
For `CO/N=C(\C(=O)N[C@@H]1C(=O)N2C(C(=O)O)=C(C[N+]3(C)CCCC3)CS[C@H]12)c1csc(N)n1`, the viability was 99.8%.
`CCN(CC)C(=O)c1ccc(O)c(OC)c1` gave a viability of 86.4%.
`CC(=O)NO` gave a viability of 105%.
With `Nc1nnc(-c2cccc(Cl)c2Cl)c(N)n1` the viability was 105%.

Series 3
SMILES: CC(C)(C(=O)O)[C@H](NC(=O)Cc1cccc(I)c1)c1ccc2oc(=O)[nH]c2c1
Method: Incucyte 3D growth
Tested at: 30 µM
Reading: higher = more growth
It gave 2.73e+07 a.u. and 1.77e+07 a.u. and 2.38e+07 a.u. and 2.26e+07 a.u. and 2.78e+07 a.u. for spheroid area (KP-4; 162 h).
For A375; 114 h: spheroid area read 7.65e+07 a.u. and 6.45e+07 a.u. and 5.96e+07 a.u. and 6.21e+07 a.u. and 7.36e+07 a.u. and 7.59e+07 a.u.
For IPC-298; 30 h: spheroid area read 1.66e+07 a.u. and 2.25e+07 a.u. and 2.6e+07 a.u. and 1.99e+07 a.u. and 2.35e+07 a.u. and 2.43e+07 a.u.
IPC-298; 66 h — spheroid area: 3.4e+07 a.u. and 3.15e+07 a.u. and 3.06e+07 a.u. and 2.63e+07 a.u. and 3.58e+07 a.u. and 2.91e+07 a.u.
It gave 1.54e+07 a.u. and 1.87e+07 a.u. and 1.44e+07 a.u. and 1.55e+07 a.u. and 2.31e+07 a.u. and 1.83e+07 a.u. for spheroid area (MEL-JUSO; 198.52 h).
KP-4; 102 h — spheroid area: 1.92e+07 a.u. and 1.75e+07 a.u. and 1.9e+07 a.u. and 1.8e+07 a.u. and 1.47e+07 a.u. and 1.6e+07 a.u.
A375; 12.52 h — spheroid area: 1.07e+07 a.u. and 1.3e+07 a.u. and 1.08e+07 a.u. and 1.02e+07 a.u. and 1.25e+07 a.u.

Series 4
SMILES: C[C@H](c1ccnc(Nc2nc3ccc(-c4cc(N(C)C)ncn4)cc3[nH]2)c1)N1CCN(C(=O)CC(F)(F)F)CC1
Method: competition with immobilised ligand
Tested at: 0.1 µM
For IKBKE (Homo sapiens, UniProt Q14164); binding: remaining binding read 9.9%.
For TEK (Homo sapiens, UniProt Q02763); cell-free assay: remaining binding read 99%.
The remaining binding was 98% (IGF1R (Homo sapiens, UniProt P08069); cell-free assay).
For DAPK1 (Homo sapiens, UniProt P53355); cell-free assay: remaining binding read 93%.
It gave 99% for remaining binding (ANKK1 (Homo sapiens, UniProt Q8NFD2); cell-free assay).
The remaining binding was 97% (MUSK (Homo sapiens, UniProt O15146); cell-free assay).
For MET (Homo sapiens, UniProt P08581); cell-free assay: remaining binding read 100%.
For SIK2 (Homo sapiens, UniProt Q9H0K1); cell-free assay: remaining binding read 79%.
The remaining binding was 100% (STK32B (Homo sapiens, UniProt Q9NY57); cell-free assay).
For EPHB6 (Homo sapiens, UniProt O15197); cell-free assay: remaining binding read 100%.
CSNK2A1 (Homo sapiens, UniProt P68400); cell-free assay — remaining binding: 100%.
Tyrosine-protein kinase JAK3, JH1 (JAK3, Homo sapiens, UniProt P52333); cell-free assay — remaining binding: 83%.
The remaining binding was 100% (DDR1 (Homo sapiens, UniProt Q08345); cell-free assay).
It gave 100% for remaining binding (NEK5 (Homo sapiens, UniProt Q6P3R8); cell-free assay).
The remaining binding was 60% (FLT3 (Homo sapiens, UniProt P36888, K663Q); cell-free assay).
For MAPK12 (Homo sapiens, UniProt P53778); cell-free assay: remaining binding read 95%.
The remaining binding was 89% (Ribosomal protein S6 kinase alpha-2, C-terminal kinase domain (RPS6KA2, Homo sapiens, UniProt Q15349); cell-free assay).
For SLK (Homo sapiens, UniProt Q9H2G2); cell-free assay: remaining binding read 99%.
The remaining binding was 53% (PIK3CA (Homo sapiens, UniProt P42336, E542K); cell-free assay).
It gave 95% for remaining binding (PKN2 (Homo sapiens, UniProt Q16513); cell-free assay).
The remaining binding was 89% (GRK7 (Homo sapiens, UniProt Q8WTQ7); cell-free assay).
For KIT (Homo sapiens, UniProt P10721, D816V); cell-free assay: remaining binding read 96%.
For Ribosomal protein S6 kinase alpha-4, C-terminal kinase domain (RPS6KA4, Homo sapiens, UniProt O75676); cell-free assay: remaining binding read 94%.
